Assay results of several laboratories.
Each numbered part is a random draw from the data of one study; scales do not carry over between parts. Positions count from the first letter of the parent shown.

Sample 1 — target: CCNF, cyclin fold, Cln2 fusion (human); technique: yeast growth competition, sequencing; matrix: yeast; notes: strong parent motif; relative to: not given; direction: higher = stronger binding
Starting sequence: SCAPER docking peptide (human); SNARRSLNFGGST
Substitution	normalised enrichment score
SNARRSLNFGGHT [S12H]	7.71
SNARRSLNFGGSP [T13P]	7.09
SNARRSLNVGGST [F9V]	0.605
SNARYSLNFGGST [R5Y]	0.106
SNARRSLNFGEST [G11E]	6.4
SNARRMLNFGGST [S6M]	7.86
SPARRSLNFGGST [N2P]	4.62
SNARRSLNFLGST [G10L]	7.14
SNARRSLNFGPST [G11P]	8.02
ANARRSLNFGGST [S1A]	8.01
SNARRSLNFGAST [G11A]	6.78
SNARRSLNFGGSV [T13V]	7.94

Sample 2 — technique: RNA Bind-n-Seq; molecule type: RNA; matrix: in vitro; concentration: 200 nM; notes: whole 134-nt RNA, ends assumed; with: 150 mM KCl; relative to: input library; direction: higher = stronger binding
Target: Fragile X messenger ribonucleoprotein 1, C-terminal low-complexity region (Fmr1, Mus musculus, UniProt P35922)
Constant ends, left off below: GGGAGUUCUACAGUCCGACGAUC … UGGAAUUCUCGGGUGUCAAGG
Strand	log2 enrichment
UGGGAGGUGGAUUUUGUUUAUUUUUUUAGCUCAUUUCCAGGGGUGGGAAUUUUUUUUUAAUAUGUGUCAUGAAUAAAGUUGUGUUUGAAA	0.39
UGGCCCUGGUGGCAUGCGGGGAGGAAGAGGUGGCCUCAUGAAUCGUGGUGGUCCCGGUGGAAUGUUCAGAGGUGGCCGUGGUGGAGACAG	-0.0364
UCCUGUGCUACACAUCGUAUGUACCGAAUCGGGGCCCCCCGGCCCCCCGGGCCCCCCGGGAAAGUAUUAUGUUACGCCGUUCGGAUCUGC	-0.0428
CCUGUGCUACACAUCGUAUGUACCGAAUCGGGGUUUGGGGUUUUUUUGGGGAAAAAGGGGAAAGUAUUAUGUUACGCCGUUCGGAUCUGC	0.421
CACAGACAACACAAACCCACACAGACACAGAGGGAAGGGGUUGGGAUGGGGACAGGGUGCACAGCAGGGCGGGGUAGGACCCCAGCCCCU	1.51
CUGUGCUACACAUCGUAUGUACCGAAUCGGGGUUUGGGGAAAAAAAGGGGUUUUUUUGGGGAAAGUAUUAUGUUACGCCGUUCGGAUCUG	0.0181
CACAGACAACACGCACCCACACAGACACAGAGGGAAGGGGUUGGGAUGGGGACAGGGUGCACAGCAGGCCGGGGUAGGACCCCAGCCCCU	1.41
UGGGAGGUGGAUUUUGUUUAUUUUUUUAGCUCAUUUCCAGGGGUGGUAAUUUUUUUUUAAUAUGUGUCAUGAAUAAAGUUGUUUUUGAAA	0.497
UAACUUUAGAGGAGGAUCUGAUGGAUAUGGCAGUGGACGUGGAUUUGGGGAUGGCUAUAAUGGGUAUGGAAGAGGACCUGGAGGUGGCAA	0.184
AGCCGAGCGGGAACGGAACCGACAGCUGGAGCGAGAGAAACGUCGGGAGCACAGUCGGGAGAGGGACAGGGAGAGAGAGAGAGAAAGGGA	0.0573
GCAGGAAGUAAAAACAAAUGGAAAUGCUUCGGAUAGUGGCAGGGGUGGGGGUUGGUAAGGAAAGGGUGGGAUGGGAGUGGGUAAAGAGUU	0.17
CACAGACAACACGCACCCACACAGACACAGAGGGAAGGGGUUGGGAUGGGGACAGGGUGCACAGCAGGGCGGGGUAGGAAACCAGCCCCU	1.09
ACCAUGCAGGUGGGCAUCUUUAGGAAGUGGGGCAAGGGGGGGAUAGGGAGGGGGGUAACACUUUGGGAACAGGUGGUCCCAGGUCGUUUC	0.819
CCCAUUCCAAGAUUUGCUGUUGGCAUUGUAAUAGGAAGAAAUGGAGAGAUGAUCAAAAAAAUACAAAAUGAUGCUGGUGUUCGCAUUCAG	-0.41

Sample 3 — technique: universal PBM; molecule type: double-stranded DNA, one strand shown; matrix: in vitro; concentration: 600 nM; direction: higher = stronger binding
Target: Sal-like protein 4, full length isoform A (SALL4, Homo sapiens, UniProt Q9UJQ4, residues 1-1053)
UniProt Q9UJQ4, sequence (whole entry, looked up): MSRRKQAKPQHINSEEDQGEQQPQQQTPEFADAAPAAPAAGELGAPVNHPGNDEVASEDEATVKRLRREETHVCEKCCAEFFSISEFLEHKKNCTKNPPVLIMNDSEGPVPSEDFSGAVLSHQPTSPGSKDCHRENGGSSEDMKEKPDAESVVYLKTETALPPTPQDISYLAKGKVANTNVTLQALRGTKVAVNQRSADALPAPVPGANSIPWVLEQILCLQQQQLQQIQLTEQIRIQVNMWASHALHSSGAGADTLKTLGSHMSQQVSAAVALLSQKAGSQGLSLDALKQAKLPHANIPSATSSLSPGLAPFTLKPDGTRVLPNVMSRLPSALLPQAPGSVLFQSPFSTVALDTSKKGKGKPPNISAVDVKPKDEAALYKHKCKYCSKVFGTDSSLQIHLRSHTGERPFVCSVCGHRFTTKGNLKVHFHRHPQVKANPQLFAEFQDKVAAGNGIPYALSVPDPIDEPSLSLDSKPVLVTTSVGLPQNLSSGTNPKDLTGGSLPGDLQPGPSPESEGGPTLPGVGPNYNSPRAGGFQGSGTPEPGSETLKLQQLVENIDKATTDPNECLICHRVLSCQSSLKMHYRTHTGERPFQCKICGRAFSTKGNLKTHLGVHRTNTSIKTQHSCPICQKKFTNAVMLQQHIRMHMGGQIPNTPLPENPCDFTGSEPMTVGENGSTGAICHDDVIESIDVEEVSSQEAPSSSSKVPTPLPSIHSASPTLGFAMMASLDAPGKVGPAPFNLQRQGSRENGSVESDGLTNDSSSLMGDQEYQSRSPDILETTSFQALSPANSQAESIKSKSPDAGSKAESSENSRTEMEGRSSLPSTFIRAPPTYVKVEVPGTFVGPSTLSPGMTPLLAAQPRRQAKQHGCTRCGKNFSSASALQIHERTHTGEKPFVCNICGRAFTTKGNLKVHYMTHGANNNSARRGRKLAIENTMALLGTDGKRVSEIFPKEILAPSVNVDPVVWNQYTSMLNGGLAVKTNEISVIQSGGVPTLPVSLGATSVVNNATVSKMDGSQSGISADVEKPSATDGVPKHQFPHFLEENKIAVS
Notes: 8-mer, flanks averaged, mean of replicates
Strand	E-score
CACCTCCA	-0.0504
AAGCGACA	-0.152
AATTGTCT	0.185
GTAAACTA	0.244
ACCCCCGA	0.0275
CCAGCGGA	-0.359
GCTATCTA	0.0272
ACGGTCCA	-0.245
CAGGCCCA	-0.318
ATAGCCCC	-0.275
AACCTACG	-0.0302
CATCCGAG	-0.115

Other studies, line by line
Substance	target	assay	system	setting	how to read	endpoint	result
PhoQ, residues 284 288 289 292 302 303 ALVSVA	PhoP, residues 12 14 15 18 19 LFHKL (Escherichia coli, UniProt P23836)	Sort-seq, item: YFP reporter	E. coli	PhoQ-PhoP variant library, with: 10 µM Mg2+	relative to: high Mg2+ state, higher = stronger signaling	fold induction	5.22
